Measured values pooled from the literature.
Every numbered part comes from another study and shows a few of its results, in no order. Changes are numbered by the printed parent chain.

Series 1
Target: Interferon regulatory factor 7, full length, phosphomimetic (IRF7, Homo sapiens, UniProt Q92985, residues 1-503, S471D/S472D/S475D/S476D/S477D/S483D/S484D/S487D)
Technique: protein-binding microarray
Molecule type: double-stranded DNA, one strand shown
Matrix: in vitro
Tested at: 2200 nM top
Notes: 60-bp whole probe
With: salmon DNA 0.4 mg/ml
Reference: random background probes
Direction: higher = stronger binding
Endpoint: fitted relative affinity
Shared flanks, not repeated: GCCTAGCAC … GTCTTGATTCGCTTGACGCTGCTG
Construct (chain): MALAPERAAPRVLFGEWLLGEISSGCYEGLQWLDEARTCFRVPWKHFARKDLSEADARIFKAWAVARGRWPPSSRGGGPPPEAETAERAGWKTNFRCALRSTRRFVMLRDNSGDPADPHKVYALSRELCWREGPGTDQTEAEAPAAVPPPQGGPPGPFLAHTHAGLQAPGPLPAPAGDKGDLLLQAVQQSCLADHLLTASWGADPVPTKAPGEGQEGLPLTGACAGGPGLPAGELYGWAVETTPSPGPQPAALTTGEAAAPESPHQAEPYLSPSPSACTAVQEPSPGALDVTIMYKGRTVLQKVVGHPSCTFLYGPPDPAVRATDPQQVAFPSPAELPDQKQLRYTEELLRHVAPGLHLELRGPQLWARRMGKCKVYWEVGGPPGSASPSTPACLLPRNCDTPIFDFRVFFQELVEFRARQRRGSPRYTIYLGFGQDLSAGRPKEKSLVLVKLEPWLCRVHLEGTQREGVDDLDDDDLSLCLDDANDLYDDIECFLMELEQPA
TTAAGTTTCGGGTATCGGTTAGTGCTA: 7.41 z-score
TCCAACCTGCTGAATCAAAAGTGCTAG: 0.707 z-score
TTAGGACTGGTGTTTCGGTTAGTGCTA: 2.83 z-score
GACGGACTGGGTTTTGGGACGTGCTAG: -0.496 z-score
AAGACCATCCTGTGTCTTAAAGTGCTA: -0.0562 z-score
TTTACTTTCTATGTCTGTTTGTGCTAG: 5.49 z-score
GACGAACTGGGGTTGCGAGACGTGCTA: -0.256 z-score
GACCGTTTCCTTCTCCTGACGTGCTAG: 2.82 z-score
TTAGGTTTCGGACTGGGTGAGTGCTAG: 3.41 z-score
TTAGATAACGGGACTGGATTAGTGCTA: -0.609 z-score
TTAGGACGGGGGACTGGGTTAGTGCTA: 0.352 z-score
TTAGGTCCCGGTATCGGTTAGTGCTAG: 0.46 z-score
TTAGGTTCCAGTTTCGATTAGTGCTAG: 6.74 z-score
GACGAACCGGGGTATCGAGACGTGCTA: -0.0431 z-score
CCCTGTGTCCACAGCTGGATGTGCTAG: -0.162 z-score
AACGGACTGGGACTGGGGACGTGCTAG: -0.91 z-score
GACGGTTTCGGTTTAGGGACGTGCTAG: 12.8 z-score
TTAGATCTCAGATTCGATTAGTGCTAG: 1.31 z-score
GACGGTTTCCTTCTCCTGCCGTGCTAG: 2.65 z-score
TTAGGACTGGGCATCGGTTAGTGCTAG: -0.917 z-score

Series 2
Target: CCNA1, cyclin fold, Cln2 fusion (human)
Technique: yeast growth competition, sequencing
Matrix: yeast
Notes: weak parent motif
Reference: not given
Direction: higher = stronger binding
Endpoint: normalised enrichment score
Parent: ORC1 docking peptide (human); PRARKRLELGNLG; partner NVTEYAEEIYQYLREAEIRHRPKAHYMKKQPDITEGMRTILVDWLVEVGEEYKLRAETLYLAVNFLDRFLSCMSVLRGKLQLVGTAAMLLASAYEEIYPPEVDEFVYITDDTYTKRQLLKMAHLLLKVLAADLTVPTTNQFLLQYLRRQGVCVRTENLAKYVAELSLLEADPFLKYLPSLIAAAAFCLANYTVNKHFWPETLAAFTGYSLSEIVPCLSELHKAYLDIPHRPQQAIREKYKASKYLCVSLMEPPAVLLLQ
L12D: 0.154
A3E: 0.507
L12M: 0.572
K5N: 0.205
P1F: 0.264
R2F: 0.0848
L7R: 0.496
G10M: 0.34
A3I: 0.00995
L7C: 0.182
N11H: 0.496
L7V: -0.0674
N11P: 0.576
A3S: 0.472
G10Q: 0.377
E8G: 0.409
A3D: 0.312
R4E: 0.433
L9A: 0.485
L9E: 0.25
R6T: 0.477
L12T: 0.49
N11T: 0.46
E8L: 0.254
R4H: 0.455

Series 3
Partner: ARF12 500-593 (Arabidopsis thaliana, UniProt Q9XID4)
Technique: two-hybrid
Reference: out of 4 tests
Direction: higher = firmer interaction
Endpoint: positive tests
B1: ARF2 727-859 (Arabidopsis thaliana, UniProt Q94JM3); chain TKTNSSRSCTKVHKQGIALGRSVDLSKFQNYEELVAELDRLFEFNGELMAPKKDWLIVYTDEENDMMLVGDDPWQEFCCMVRKIFIYTKEEVRKMNPGTLSCRSEEEAVVGEGSDAKDAKSASNPSLSSAGNS
B2: IAA31 (Arabidopsis thaliana, UniProt Q8H174); chain MEVSNSCSSFSSSSVDSTKPSPSESSVNLSLSLTFPSTSPQREARQDWPPIKSRLRDTLKGRRLLRRGDDTSLFVKVYMEGVPIGRKLDLCVFSGYESLLENLSHMFDTSIICGNRDRKHHVLTYEDKDGDWMMVGDIPWDMFLETVRRLKITRPERY
B3: ARF5 788-902 (Arabidopsis thaliana, UniProt P93024); chain ATPRVRTYTKVQKTGSVGRSIDVTSFKDYEELKSAIECMFGLEGLLTHPQSSGWKLVYVDYESDVLLVGDDPWEEFVGCVRCIRILSPTEVQQMSEEGMKLLNSAGINDLKTSVS
B4: ARF6 790-935 (Arabidopsis thaliana, UniProt Q9ZTX8); chain SENPQSNTFVKVYKSGSFGRSLDISKFSSYHELRSELARMFGLEGQLEDPVRSGWQLVFVDRENDVLLLGDDPWPEFVSSVWCIKILSPQEVQQMGKRGLELLNSAPSSNNVDKLPSNGNCDDFGNRSDPRNLGNGIASVGGSFNY
B5: IAA28 (Arabidopsis thaliana, UniProt Q9XFM0); chain MEEEKRLELRLAPPCHQFTSNNNINGSKQKSSTKETSFLSNNRVEVAPVVGWPPVRSSRRNLTAQLKEEMKKKESDEEKELYVKINMEGVPIGRKVNLSAYNNYQQLSHAVDQLFSKKDSWDLNRQYTLVYEDTEGDKVLVGDVPWEMFVSTVKRLHVLKTSHAFSLSPRKHGKE
B6: IAA34 (Arabidopsis thaliana, UniProt Q9C5X0); chain MYCSDPPHPLHLVASDKQQKDHKLILSWKKPTMDSDPLGVFPNSPKYHPYYSQTTEFGGVIDLGLSLRTIQHEIYHSSGQRYCSNEGYRRKWGYVKVTMDGLVVGRKVCVLDHGSYSTLAHQLEDMFGMQSVSGLRLFQMESEFCLVYRDEEGLWRNAGDVPWNEFIESVERLRITRRNDAVLPF
Target sequence (chain): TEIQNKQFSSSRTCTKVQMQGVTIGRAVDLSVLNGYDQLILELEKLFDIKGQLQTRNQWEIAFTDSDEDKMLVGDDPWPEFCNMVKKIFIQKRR
B1 (ARF2 727-859): 3
B2 (IAA31): 3
B3 (ARF5 788-902): 1
B4 (ARF6 790-935): 0
B5 (IAA28): 0
B6 (IAA34): 1

Series 4
Target: ABI1, truncated, D143A, DHFR fusion (Arabidopsis thaliana)
Technique: DHFR PCA, deep sequencing
Matrix: yeast
Notes: methotrexate growth selection, single substitutions
With: (+)-ABA 0.39 µM
Reference: wild-type fitted maximum
Direction: higher = stronger binding
Endpoint: relative binding score
Parent: PYL1, truncated, DHFR fusion (Arabidopsis thaliana); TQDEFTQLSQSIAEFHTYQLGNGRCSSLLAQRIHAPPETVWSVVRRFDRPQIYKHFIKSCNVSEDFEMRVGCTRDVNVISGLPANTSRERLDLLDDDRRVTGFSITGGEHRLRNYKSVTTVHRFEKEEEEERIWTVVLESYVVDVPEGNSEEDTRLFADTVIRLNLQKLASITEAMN
D144F: -37.5%
E109M: -3.24%
T119S: -7.48%
C25W: 1.78%
E89C: -5.49%
I33M: 3.91%
C72P: -7.42%
K54S: -13.3%
M68R: -3.72%
S27Q: -1.7%
G81W: -8.05%
E130Y: 21.9%
N177C: 62.8%
P36E: 24.6%
I79W: 27.8%
L8G: -6.26%
F157Q: -0.212%
Y53A: -5.16%
V121S: -6.72%
S140T: 11.3%

Further values, each from its own experiment
PhoQ, residues 284 288 289 292 302 303 TLSLKA
fold induction (PhoP, residues 12 14 15 18 19 LYFRQ (Escherichia coli, UniProt P23836); Sort-seq, item: YFP reporter; E. coli; PhoQ-PhoP variant library, with: 10 µM Mg2+; reference: high Mg2+ state, higher = stronger signaling): 1.83
